# Experimental data gathered from unrelated publications.
# Numbered parts are unrelated; each lists some results of a single study. Substitutions count along the parent as printed.

# Block 1 — technique: competition protein-binding microarray; form: double-stranded DNA, one strand shown; matrix: in vitro; concentration: 2 µM; with: Pho4 competitor, 0.05 µM; direction: higher = stronger binding; shared flanks, not repeated: … GTCTTGATTCGCTTGACGCTGCTG
# Target: Centromere-binding protein 1, full length, His-tagged (CBF1, Saccharomyces cerevisiae, UniProt P17106, residues 1-351)
# UniProt P17106, sequence (whole entry, looked up): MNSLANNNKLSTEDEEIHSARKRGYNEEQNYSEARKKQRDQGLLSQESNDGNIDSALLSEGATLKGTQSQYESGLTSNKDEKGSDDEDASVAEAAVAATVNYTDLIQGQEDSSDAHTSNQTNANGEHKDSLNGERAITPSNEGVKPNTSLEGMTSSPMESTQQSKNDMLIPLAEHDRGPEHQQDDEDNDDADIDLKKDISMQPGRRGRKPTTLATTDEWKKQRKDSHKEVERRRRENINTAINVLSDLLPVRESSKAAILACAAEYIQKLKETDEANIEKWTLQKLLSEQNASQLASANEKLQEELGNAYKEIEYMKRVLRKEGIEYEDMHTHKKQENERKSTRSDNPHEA
# Setting: whole 60-bp probe, lowest competitor level
Sequence,fluorescence intensity [a.u.]
AAAGCGGTAATTTGTTTCGTGGGTGCAGATATCTAT,78.1
CATCCTCTTACATCGCACGTGATGGTATACTACTAA,4440
TTGACACCATGTTTGCACATGTTACCTGCCGACTAC,166
AAAGCGGTAATTTGAGTTGTGGGTGCAGATATCTAT,90.6
TGTAGAGCAAACCGTAGTGGTAATAGTGGTTGTTGA,60.4
ATCGCTTTGCATCCTTACGTGCGGAAGATGGCATCG,101
CATACCCAACCTTGAACTGTGGGTGAAGATATTTGT,63.2
CATACCCAACCTTTACACGTGTTTTAAGATATTTGT,1430
TCACAAGATGATTGTCATGAAATTCTCTGTCTCTCC,90.6
CGGGGTTAAGTTTGTCACCTCACTTGCTTGCAGCAG,68.3
CGCAGGGAGCCTGGCCACATGGGAGGGGTGTGGTCC,62.1
CCAACTTTTTTGGATCACATGATAAGAGTTACTATT,2810
AAAGCGGTAATTTGATAAGTGGGTGCAGATATCTAT,89.6
TGCGCAACAACTTGAATAGTGGGTGTATGTCTAGAA,59.6
TCTCCCAAAATTTCACACGTGATGGGATGATTTTGG,2980
CATAAGAGGTTTGGACACGTTCTTAAGGCTAACTCC,90.3
GACTTCTCCAAAGACAACGTGCTTTCCGTCCAACCA,134
CTAAAAGTGCATTACGACCTGCATCTCCAGTAGTTT,66.1

# Block 2 — target: CCNB1, cyclin fold, Cln2 fusion (human); technique: yeast growth competition, sequencing; matrix: yeast; setting: strong parent motif; relative to: not given; direction: higher = stronger binding
# Parent: MICAL3 docking peptide (human); LQLRRQLSFSEDS; partner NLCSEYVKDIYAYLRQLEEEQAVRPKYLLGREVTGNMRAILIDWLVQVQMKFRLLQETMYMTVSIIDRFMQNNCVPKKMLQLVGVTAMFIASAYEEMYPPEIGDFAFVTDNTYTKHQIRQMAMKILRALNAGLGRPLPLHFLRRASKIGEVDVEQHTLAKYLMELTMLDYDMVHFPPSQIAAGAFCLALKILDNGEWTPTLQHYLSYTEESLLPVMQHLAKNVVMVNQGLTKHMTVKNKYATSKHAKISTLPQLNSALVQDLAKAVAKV
Variant,normalised enrichment score
LQLRFQLSFSEDS [R5F],0.361
LQLRRQLRFSEDS [S8R],1.1
LQLRRQLSFSETS [D12T],4.13
LQLRRQMSFSEDS [L7M],0.836
LQWRRQLSFSEDS [L3W],2.67
LQLRRQLSFSENS [D12N],4.11
LQQRRQLSFSEDS [L3Q],0.353
LQLRRQLSFDEDS [S10D],4.76
LQLRRQYSFSEDS [L7Y],0.065
LQLRRQLSFSGDS [E11G],3.58
LQLRRQQSFSEDS [L7Q],0.0415
LQLRRPLSFSEDS [Q6P],2.08
LQLRRQLTFSEDS [S8T],2.92

# Block 3 — target: XBP1, bZIP domain (human); technique: DHFR protein complementation; matrix: yeast; relative to: wild-type JUN-FOS pair; direction: higher = stronger binding
# Setting: single substitutions, most at no-binding floor
# Parent: JUN, bZIP domain (human); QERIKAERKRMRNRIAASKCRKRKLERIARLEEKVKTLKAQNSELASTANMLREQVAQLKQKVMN; partner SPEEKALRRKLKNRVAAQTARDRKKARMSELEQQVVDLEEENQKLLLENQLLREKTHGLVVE
Variant,binding fitness [natural log]
M51Q,-0.603
A49C,-0.841
S43G,-0.964
S43E,-0.271
M51C,-1.03
V56H,-1.02
Q55P,-1.35
R30V,-0.253
T48D,-1.33
L45S,-1.41
E44K,-1.24
V35W,-1.42

# Block 4 — technique: protein binding microarray; form: double-stranded DNA, one strand shown; matrix: in vitro; concentration: not given; relative to: not given; direction: higher = stronger binding
# Target: Histone acetyltransferase KAT6A, winged helix 2, GST fusion (KAT6A, Homo sapiens, UniProt Q92794, residues 85-181)
# Setting: 8-mer, flanks averaged, mean of 2 arrays, mostly near background
# Residues (chain): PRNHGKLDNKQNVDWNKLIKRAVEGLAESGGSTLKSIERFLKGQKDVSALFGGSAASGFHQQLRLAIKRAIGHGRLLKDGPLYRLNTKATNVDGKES
Sequence,E-score
CAATCGAC,-0.204
GCTCAGAC,0.0367
AACTAGTG,-0.198
ACCCGTGG,0.0501
ACAACCAA,-0.0535
ACTTAGAA,-0.109
AGACCGTA,-0.157
AATCCCCT,-0.0499
CGGCTGTC,0.0269
CTAAGCGA,-0.0776
ACTCTTTG,-0.0986
GATTGTCA,-0.0347
AGTGACCA,-0.064
GTGGGTCA,-0.0248
CGAGTTGA,0.0707
CTACAGGC,-0.108
GATACACC,0.103
CGAAACTC,0.0269
CTAGTTGA,-0.00831
GGGTTCAA,-0.0955
AAGATTAC,-0.0402

# Block 5 — technique: DHFR PCA, deep sequencing; matrix: yeast; with: (+)-ABA 0.0091 µM; relative to: wild-type fitted maximum; direction: higher = stronger binding
# Target: ABI1, truncated, D143A, DHFR fusion (Arabidopsis thaliana)
# Setting: methotrexate growth selection, single substitutions
# Parent: PYL1, truncated, DHFR fusion (Arabidopsis thaliana); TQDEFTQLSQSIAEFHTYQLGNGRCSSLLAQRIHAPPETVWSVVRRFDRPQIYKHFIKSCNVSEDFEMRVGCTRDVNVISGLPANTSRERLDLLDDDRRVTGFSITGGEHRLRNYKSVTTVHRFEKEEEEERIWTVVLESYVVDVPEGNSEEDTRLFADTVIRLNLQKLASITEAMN; partner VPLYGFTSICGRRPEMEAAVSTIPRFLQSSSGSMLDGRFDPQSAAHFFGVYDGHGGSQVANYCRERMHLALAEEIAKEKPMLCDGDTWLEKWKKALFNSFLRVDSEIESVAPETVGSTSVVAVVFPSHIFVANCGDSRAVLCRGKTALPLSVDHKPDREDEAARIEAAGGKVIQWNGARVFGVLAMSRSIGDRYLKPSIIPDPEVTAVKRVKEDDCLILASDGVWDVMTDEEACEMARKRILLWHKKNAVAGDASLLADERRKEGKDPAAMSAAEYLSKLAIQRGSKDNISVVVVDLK
Variant,relative binding score
S27V,1.26%
N77I,49.2%
L29D,3.14%
T135K,-11.7%
N61E,53%
A170L,-7.92%
N22Y,16%
K116W,0.461%
E125T,31.5%
F5Y,40.2%
E14N,5.45%
S42D,18.3%
D144L,-3.36%
R155M,6.4%

# For quick reference, copied from above (block 1):
Sequence,fluorescence intensity [a.u.]
ATCGCTTTGCATCCTTACGTGCGGAAGATGGCATCG,101
TGTAGAGCAAACCGTAGTGGTAATAGTGGTTGTTGA,60.4
TCTCCCAAAATTTCACACGTGATGGGATGATTTTGG,2980
CATAAGAGGTTTGGACACGTTCTTAAGGCTAACTCC,90.3
CGGGGTTAAGTTTGTCACCTCACTTGCTTGCAGCAG,68.3
CATCCTCTTACATCGCACGTGATGGTATACTACTAA,4440
TGCGCAACAACTTGAATAGTGGGTGTATGTCTAGAA,59.6
CATACCCAACCTTTACACGTGTTTTAAGATATTTGT,1430
GACTTCTCCAAAGACAACGTGCTTTCCGTCCAACCA,134
CTAAAAGTGCATTACGACCTGCATCTCCAGTAGTTT,66.1
AAAGCGGTAATTTGTTTCGTGGGTGCAGATATCTAT,78.1
CATACCCAACCTTGAACTGTGGGTGAAGATATTTGT,63.2
